Measurements pooled from the literature.
Lines come from different studies, so protocols differ. ± gives the spread as reported.
APP Aβ42 aggregates: Amyloid-beta precursor protein, Aβ42 aggregates (APP, Homo sapiens, UniProt P05067)
UniProt P05067, sequence (whole entry, looked up): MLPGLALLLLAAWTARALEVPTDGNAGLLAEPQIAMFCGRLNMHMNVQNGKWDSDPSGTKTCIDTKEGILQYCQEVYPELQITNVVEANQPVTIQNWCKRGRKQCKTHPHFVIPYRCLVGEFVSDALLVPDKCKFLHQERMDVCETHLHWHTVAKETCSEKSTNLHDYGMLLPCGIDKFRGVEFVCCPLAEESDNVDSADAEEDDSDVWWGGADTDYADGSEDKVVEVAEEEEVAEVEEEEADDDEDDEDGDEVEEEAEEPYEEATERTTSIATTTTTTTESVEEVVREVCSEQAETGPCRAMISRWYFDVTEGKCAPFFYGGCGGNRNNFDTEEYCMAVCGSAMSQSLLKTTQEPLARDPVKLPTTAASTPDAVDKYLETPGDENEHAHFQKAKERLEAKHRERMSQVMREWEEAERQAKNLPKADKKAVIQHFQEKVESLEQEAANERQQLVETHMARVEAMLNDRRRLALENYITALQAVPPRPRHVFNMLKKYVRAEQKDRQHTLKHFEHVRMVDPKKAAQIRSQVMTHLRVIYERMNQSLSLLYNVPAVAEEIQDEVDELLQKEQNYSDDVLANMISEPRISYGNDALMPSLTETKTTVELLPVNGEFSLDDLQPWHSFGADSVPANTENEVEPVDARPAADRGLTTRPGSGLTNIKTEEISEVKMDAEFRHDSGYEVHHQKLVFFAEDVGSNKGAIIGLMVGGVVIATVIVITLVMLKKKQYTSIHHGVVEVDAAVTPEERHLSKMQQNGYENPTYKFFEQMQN
APP: Amyloid-beta precursor protein (APP, Homo sapiens, UniProt P05067)
APP monomer: Amyloid-beta precursor protein, monomer (APP, Homo sapiens, UniProt P05067)

Compound	target	test	test system	setting	how to read	endpoint	value
CC[C@H](C)[C@@H]1NC(=O)[C@H]([C@@H](C)O)NC(=O)[C@H](Cc2ccc(O)cc2)NC(=O)[C@H](CCCNC(=N)N)NC(=O)[C@@H]2CCCN2C(=O)[C@H]2CCCN2C(=O)[C@H]([C@@H](C)O)NC(=O)[C@H](C(C)C)NC(=O)[C@H](C(C)C)NC(=O)[C@H](CCCCN)NC(=O)[C@H](CO)NC(=O)[C@@H](CCC(N)=O)NC(=O)[C@H](CO)NC(=O)[C@H](Cc2ccc(O)cc2)NC(=O)[C@H](CO)NC(=O)[C@H](Cc2ccc(O)cc2)NC(=O)[C@@H]2CCCN2C(=O)[C@H](CO)NC(=O)[C@H](CC(C)C)NC(=O)[C@H](CC(C)C)NC(=O)[C@H](C)NC(=O)[C@H](C)NC1=O	Amyloid-beta precursor protein, Aβ40 (APP, Homo sapiens, UniProt P05067)	amyloid-beta aggregation, dynamic light scattering		14 µM, 37 °C, together with: 140 µM amyloid-beta	reference: amyloid-beta alone, higher = more aggregation	scattered light intensity	~2 fold
N#C/C(=C\c1ccc2cc(N3CCCCC3)ccc2c1)C(=O)OCC(O)CO (stereo not shown)	APP Aβ42 aggregates	fluorescence		together with: aggregated Abeta42 5 µM	reference: free compound	emission intensity increase	6.6 fold
CC[C@H](C)[C@H](NC(=O)[C@@H]1CCCN1C(=O)[C@@H](N)C(C)C)C(=O)N[C@@H](C)C(N)=O	APP	amyloid aggregation, inhibitor, fluorescence		2 µM, 24 h		inhibition	31.8%
CC(C)C[C@@H]1NC(=O)CN(C)C(=O)CCC(=O)NCCCC[C@@H](C(=O)N[C@@H](CCCNC(=N)N)C(N)=O)NC(=O)[C@H](Cc2ccccc2)NC(=O)[C@H](Cc2ccccc2)NC(=O)[C@H](C(C)C)NC1=O	APP monomer	amyloid aggregation, inhibitor, fluorescence		40 µM, pH 7.4		inhibition	76.1%
COCCOCCOCCOC(=O)C(C#N)=Cc1ccc(C=Cc2ccc(N(C)C)cc2)cc1	APP Aβ42 aggregates	binding, fluorescence spectroscopy	PBS	4 µM, together with: pre-aggregated Aβ(1-42) 5 µM		excitation maximum	319 nm
[123I]c1ccc2nc(-c3ccc(-n4ccnn4)nc3)cn2c1	Amyloid-beta precursor protein, amyloid-beta (APP, Homo sapiens, UniProt P05067)	SPECT	Alzheimer's disease patients, cortical regions	range over cortical regions	reference: healthy control subjects	SUVR increase	20 to 70%
COCCOCCOCCOC(=O)C(C#N)=Cc1ccc(N(C)C)cc1	APP Aβ42 aggregates	binding, fluorescence spectroscopy	PBS	4 µM, together with: pre-aggregated Aβ(1-42) 5 µM		excitation maximum	435 nm
CC(C)C[C@@H]1NC(=O)CN(C)C(=O)CCCCC(=O)NCCCC[C@@H](C(=O)N[C@@H](CCCNC(=N)N)C(N)=O)NC(=O)[C@H](Cc2ccccc2)NC(=O)[C@H](Cc2ccccc2)NC(=O)c2ccccc2NC1=O	APP monomer	amyloid aggregation, inhibitor, fluorescence		40 µM, pH 7.4		inhibition	69%
COCCOCCOCCOC(=O)/C(C#N)=C/c1ccc2cc(N3CCOCC3)ccc2c1	APP Aβ42 aggregates	fluorescence		together with: aggregated Abeta42 5 µM	reference: free compound	emission intensity increase	5.1 fold
CC[C@H](C)[C@H](NC(=O)[C@@H](NC(=O)[C@@H](NC(=O)[C@@H](N)C(C)C)C(C)C)[C@@H](C)CC)C(N)=O	APP	amyloid aggregation, inhibitor, fluorescence		2 µM, 24 h		inhibition	0%
CCN(CC)c1ccc(C=C(C#N)C(=O)OCCOCCOCCOC)cc1	APP Aβ42 aggregates	binding, fluorescence spectroscopy	PBS	4 µM, together with: pre-aggregated Aβ(1-42) 5 µM		emission maximum	470 nm
CC[C@H](C)[C@H](NC(=O)[C@@H](Cc1ccccc1)NC(=O)[C@@H](N)C(C)C)C(=O)N[C@@H](C)C(N)=O	APP	amyloid aggregation, inhibitor, fluorescence		4 µM, 24 h		inhibition	66.2%
COc1cc(C=CC(=O)CC(=O)C=Cc2ccc(OCC(=O)O)c(OC)c2)ccc1O	APP	Aβ aggregation, SDS-PAGE western blot, measured: Aβ1-42 75-200 kDa band		30 µM, 24 h, 37 °C, together with: Aβ1-42 10 µM	reference: DMSO	band density	304 ± 53%

Some of these lines once more:
Compound	target	test	test system	setting	how to read	endpoint	value
CC[C@H](C)[C@H](NC(=O)[C@@H](NC(=O)[C@@H](NC(=O)[C@@H](N)C(C)C)C(C)C)[C@@H](C)CC)C(N)=O	APP	amyloid aggregation, inhibitor, fluorescence		2 µM, 24 h		inhibition	0%
